Published values pooled from the literature.
Target: Serine/threonine-protein kinase PAK 1 (PAK1, Homo sapiens, UniProt Q13153)

With `Cc1ccc(-c2c(/C=C(\C#N)C(=O)NC(C)C)n(CCCO)c3ncnc(N)c23)cc1` the remaining binding was 100% (cell-free assay, competition with immobilised ligand; 1 µM).
For `C=CC(=O)N1CCCC(n2c(=O)c3ncccc3n(Cc3ccc(Oc4ccccc4)cc3)c2=O)C1` (centres unmarked), the remaining binding was 100% (cell-free assay, competition with immobilised ligand; 1 µM).
`COc1cc(Nc2nc(C)cc(-c3cnn4nc(OC)ccc34)n2)cc(C(F)(F)F)c1` has a remaining activity of 86% (inhibitor; 1 µM; relative to: control).
For `O=C(Cc1ccc(OCc2ccccc2)cc1)NC1(C(=O)O)CCN(C(=O)c2ccc(-c3cccc(Cl)c3)cc2)CC1`, “activity vs control” read 110% (enzyme activity, inhibitor; 10 µM).
`CC(C)=CC1OC(C)(C)C2C=C3C(=O)C(Cl)=CC(O)C3C3C(O)C4OC4C(=O)C132` (centres unmarked) has a remaining binding of 96% (cell-free assay, competition with immobilised ligand; 10 µM).
The inhibition of `NC(=O)C[C@H]1CCc2sc3ncnc(O[C@H]4CC[C@H](N5CCOCC5)CC4)c3c21` is reported as 2% (enzyme activity, inhibitor; 10 µM).
With `Cc1cccc(O[C@H]2CCC[C@@H](C(C)CNCc3ccncc3)C2)c1` (relative stereo) the inhibition was 2% (enzyme activity, inhibitor; 1 µM).
With `CN1CCN(Cc2ccc(-c3ccc(CO[C@H]4CCC[C@@H]4NC(=O)c4cc(-c5cnn(C)c5)cnc4N)cc3)cc2)CC1` the inhibition was 9% (enzyme activity, inhibitor; 0.1 µM).
The inhibition of `C[C@H]1CN(C(=O)c2cn(-c3ccnc(N)n3)c3cc(C#CC4(O)CCCCC4)ccc23)CCN1` is reported as 25% (enzyme activity, inhibitor, FRET; 1 µM).
For `Nc1ncc(-c2cc(-c3cnn(CC(F)(F)F)c3)ncc2F)nc1C(=O)NC1CNCC(F)C1` (centres unmarked), the remaining activity was 94.4% (enzyme activity; 1 µM; relative to: DMSO control).
`COc1c(Cl)cccc1Nc1c(-c2ccncc2C#C[C@@]2(C)CCCN2C(=O)/C=C/CN(C)C)[nH]c2c1C(=O)NCC2` gave a remaining binding of 92% (cell-free assay, competition with immobilised ligand; 3 µM).
The remaining binding of `C=C1CCCCCCCCCC(CO)C1=O` (centres unmarked) is reported as 100% (cell-free assay, competition with immobilised ligand; 10 µM).
`Nc1ncc2c(n1)-c1c([nH]c3ccc(C4=CCOCC4)cc13)CCC2` gave a remaining binding of 100% (binding, competition with immobilised ligand; 1 µM).
With `CN1CCN(Cc2ccc(NC(=O)c3cccc(C#Cc4cnc(N)c5ncccc45)c3)cc2C(F)(F)F)CC1` the remaining binding was 100% (cell-free assay, competition with immobilised ligand; 0.5 µM).
For `CCn1cc(C(=O)O)c(=O)c2c(N)c(F)c(NC3CCCCC3)cc21`, the inhibition was 2.8% (kinase activity; 0.1 µM, added: ATP at Km).
`C=CC(=O)Nc1cccc(-c2cnc3[nH]cc(C(=O)NC(C)(C)C)c3n2)c1` has an inhibition of 5% (kinase activity; 0.1 µM).
With `COc1ccc(NC(=O)Nc2ccc3c(c2)C(=O)N(C(C)CO)CC(C)C(CN(C)Cc2ccc4c(c2)OCO4)O3)cc1` (centres unmarked) the remaining binding was 77% (binding, competition with immobilised ligand; 10 µM).

For quick reference, copied from above:
For `O=C(Cc1ccc(OCc2ccccc2)cc1)NC1(C(=O)O)CCN(C(=O)c2ccc(-c3cccc(Cl)c3)cc2)CC1`, “activity vs control” read 110% (enzyme activity, inhibitor; 10 µM).
`CC(C)=CC1OC(C)(C)C2C=C3C(=O)C(Cl)=CC(O)C3C3C(O)C4OC4C(=O)C132` (centres unmarked) has a remaining binding of 96% (cell-free assay, competition with immobilised ligand; 10 µM).
